# Assay results collected from several papers.
# Every numbered part comes from another study and shows a few of its results, in no order.
# UniProt P31152, sequence (whole entry, looked up): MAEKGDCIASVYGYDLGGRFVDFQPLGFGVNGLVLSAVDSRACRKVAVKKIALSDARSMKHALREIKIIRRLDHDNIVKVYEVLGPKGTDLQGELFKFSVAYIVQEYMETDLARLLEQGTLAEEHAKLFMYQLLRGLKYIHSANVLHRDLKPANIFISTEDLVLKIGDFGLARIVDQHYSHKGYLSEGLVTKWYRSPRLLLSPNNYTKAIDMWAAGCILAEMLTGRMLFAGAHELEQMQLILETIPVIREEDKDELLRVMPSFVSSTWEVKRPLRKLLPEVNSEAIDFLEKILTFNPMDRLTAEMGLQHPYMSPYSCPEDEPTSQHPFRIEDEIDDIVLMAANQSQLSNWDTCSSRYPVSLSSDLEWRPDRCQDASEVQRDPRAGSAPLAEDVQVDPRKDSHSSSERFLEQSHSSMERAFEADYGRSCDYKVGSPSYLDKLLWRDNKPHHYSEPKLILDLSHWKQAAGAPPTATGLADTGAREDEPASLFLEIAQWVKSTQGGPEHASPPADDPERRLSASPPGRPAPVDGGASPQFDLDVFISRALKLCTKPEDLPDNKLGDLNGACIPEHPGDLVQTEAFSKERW
# UniProt P42336, sequence (whole entry, unmodified, looked up): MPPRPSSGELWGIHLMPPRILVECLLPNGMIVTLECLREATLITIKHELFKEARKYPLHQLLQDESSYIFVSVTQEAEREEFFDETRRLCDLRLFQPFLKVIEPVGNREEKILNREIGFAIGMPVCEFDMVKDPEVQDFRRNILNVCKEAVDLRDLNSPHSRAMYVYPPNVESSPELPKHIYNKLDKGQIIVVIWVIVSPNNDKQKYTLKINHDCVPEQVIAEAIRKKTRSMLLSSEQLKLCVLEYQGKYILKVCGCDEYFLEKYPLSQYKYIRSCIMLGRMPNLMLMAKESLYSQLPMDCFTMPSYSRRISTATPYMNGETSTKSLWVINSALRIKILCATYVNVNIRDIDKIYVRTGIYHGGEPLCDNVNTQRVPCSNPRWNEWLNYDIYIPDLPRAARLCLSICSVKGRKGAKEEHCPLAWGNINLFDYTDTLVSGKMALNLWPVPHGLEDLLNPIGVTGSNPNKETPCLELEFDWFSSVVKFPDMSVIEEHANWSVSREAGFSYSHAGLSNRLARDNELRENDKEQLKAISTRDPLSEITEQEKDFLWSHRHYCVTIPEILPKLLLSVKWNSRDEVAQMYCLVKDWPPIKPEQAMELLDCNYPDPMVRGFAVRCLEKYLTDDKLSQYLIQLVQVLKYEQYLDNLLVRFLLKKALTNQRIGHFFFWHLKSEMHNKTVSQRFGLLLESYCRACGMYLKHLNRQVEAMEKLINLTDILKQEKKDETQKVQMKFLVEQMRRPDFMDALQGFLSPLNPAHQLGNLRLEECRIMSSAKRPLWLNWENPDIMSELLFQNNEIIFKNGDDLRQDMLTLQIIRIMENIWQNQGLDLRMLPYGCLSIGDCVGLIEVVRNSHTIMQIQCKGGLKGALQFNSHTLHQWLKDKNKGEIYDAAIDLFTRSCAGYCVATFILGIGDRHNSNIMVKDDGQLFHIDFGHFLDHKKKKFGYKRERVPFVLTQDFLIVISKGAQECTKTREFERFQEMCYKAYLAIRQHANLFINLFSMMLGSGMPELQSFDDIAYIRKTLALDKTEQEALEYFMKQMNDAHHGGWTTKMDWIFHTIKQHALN

# Block 1
# Compound: COc1ccc2c(c1)O[C@H](c1ccc(OC)c(OC)c1)C[C@@H]2NC(=O)C1(c2ccc3c(c2)OC(F)(F)O3)CC1
# Effect on: cell-free assay
# Method: competition with immobilised ligand
# Tested at: 1 µM
target,remaining binding [%]
"Mitogen-activated protein kinase 4 (MAPK4, Homo sapiens, UniProt P31152)",100
"Serine/threonine-protein kinase SIK2 (SIK2, Homo sapiens, UniProt Q9H0K1)",100
"Casein kinase I isoform epsilon (CSNK1E, Homo sapiens, UniProt P49674)",100
"Tyrosine-protein kinase ABL1, phosphorylated (ABL1, Homo sapiens, UniProt P00519, Y253F)",93
"Phosphatidylinositol 4,5-bisphosphate 3-kinase catalytic subunit alpha isoform (PIK3CA, Homo sapiens, UniProt P42336, E545K)",91
"Protein kinase C iota type (PRKCI, Homo sapiens, UniProt P41743)",89
"Tyrosine-protein kinase Tec (TEC, Homo sapiens, UniProt P42680)",100
"Cyclin-dependent kinase 3 (CDK3, Homo sapiens, UniProt Q00526)",100
"Mitogen-activated protein kinase 14 (MAPK14, Homo sapiens, UniProt Q16539)",90
"Epidermal growth factor receptor (EGFR, Homo sapiens, UniProt P00533, L858R/T790M)",96
"Receptor-type tyrosine-protein kinase FLT3 (FLT3, Homo sapiens, UniProt P36888, ITD)",100
"Phosphatidylinositol 4,5-bisphosphate 3-kinase catalytic subunit gamma isoform (PIK3CG, Homo sapiens, UniProt P48736)",74
"MAP kinase-interacting serine/threonine-protein kinase 2 (MKNK2, Homo sapiens, UniProt Q9HBH9)",100
"SRSF protein kinase 1 (SRPK1, Homo sapiens, UniProt Q96SB4)",100
"Atypical kinase COQ8B, mitochondrial (COQ8B, Homo sapiens, UniProt Q96D53)",63

# Block 2
# Target: DNA polymerase theta, ATPase domain (POLQ, Homo sapiens, UniProt O75417)
# UniProt O75417, sequence (whole entry, unmodified, looked up): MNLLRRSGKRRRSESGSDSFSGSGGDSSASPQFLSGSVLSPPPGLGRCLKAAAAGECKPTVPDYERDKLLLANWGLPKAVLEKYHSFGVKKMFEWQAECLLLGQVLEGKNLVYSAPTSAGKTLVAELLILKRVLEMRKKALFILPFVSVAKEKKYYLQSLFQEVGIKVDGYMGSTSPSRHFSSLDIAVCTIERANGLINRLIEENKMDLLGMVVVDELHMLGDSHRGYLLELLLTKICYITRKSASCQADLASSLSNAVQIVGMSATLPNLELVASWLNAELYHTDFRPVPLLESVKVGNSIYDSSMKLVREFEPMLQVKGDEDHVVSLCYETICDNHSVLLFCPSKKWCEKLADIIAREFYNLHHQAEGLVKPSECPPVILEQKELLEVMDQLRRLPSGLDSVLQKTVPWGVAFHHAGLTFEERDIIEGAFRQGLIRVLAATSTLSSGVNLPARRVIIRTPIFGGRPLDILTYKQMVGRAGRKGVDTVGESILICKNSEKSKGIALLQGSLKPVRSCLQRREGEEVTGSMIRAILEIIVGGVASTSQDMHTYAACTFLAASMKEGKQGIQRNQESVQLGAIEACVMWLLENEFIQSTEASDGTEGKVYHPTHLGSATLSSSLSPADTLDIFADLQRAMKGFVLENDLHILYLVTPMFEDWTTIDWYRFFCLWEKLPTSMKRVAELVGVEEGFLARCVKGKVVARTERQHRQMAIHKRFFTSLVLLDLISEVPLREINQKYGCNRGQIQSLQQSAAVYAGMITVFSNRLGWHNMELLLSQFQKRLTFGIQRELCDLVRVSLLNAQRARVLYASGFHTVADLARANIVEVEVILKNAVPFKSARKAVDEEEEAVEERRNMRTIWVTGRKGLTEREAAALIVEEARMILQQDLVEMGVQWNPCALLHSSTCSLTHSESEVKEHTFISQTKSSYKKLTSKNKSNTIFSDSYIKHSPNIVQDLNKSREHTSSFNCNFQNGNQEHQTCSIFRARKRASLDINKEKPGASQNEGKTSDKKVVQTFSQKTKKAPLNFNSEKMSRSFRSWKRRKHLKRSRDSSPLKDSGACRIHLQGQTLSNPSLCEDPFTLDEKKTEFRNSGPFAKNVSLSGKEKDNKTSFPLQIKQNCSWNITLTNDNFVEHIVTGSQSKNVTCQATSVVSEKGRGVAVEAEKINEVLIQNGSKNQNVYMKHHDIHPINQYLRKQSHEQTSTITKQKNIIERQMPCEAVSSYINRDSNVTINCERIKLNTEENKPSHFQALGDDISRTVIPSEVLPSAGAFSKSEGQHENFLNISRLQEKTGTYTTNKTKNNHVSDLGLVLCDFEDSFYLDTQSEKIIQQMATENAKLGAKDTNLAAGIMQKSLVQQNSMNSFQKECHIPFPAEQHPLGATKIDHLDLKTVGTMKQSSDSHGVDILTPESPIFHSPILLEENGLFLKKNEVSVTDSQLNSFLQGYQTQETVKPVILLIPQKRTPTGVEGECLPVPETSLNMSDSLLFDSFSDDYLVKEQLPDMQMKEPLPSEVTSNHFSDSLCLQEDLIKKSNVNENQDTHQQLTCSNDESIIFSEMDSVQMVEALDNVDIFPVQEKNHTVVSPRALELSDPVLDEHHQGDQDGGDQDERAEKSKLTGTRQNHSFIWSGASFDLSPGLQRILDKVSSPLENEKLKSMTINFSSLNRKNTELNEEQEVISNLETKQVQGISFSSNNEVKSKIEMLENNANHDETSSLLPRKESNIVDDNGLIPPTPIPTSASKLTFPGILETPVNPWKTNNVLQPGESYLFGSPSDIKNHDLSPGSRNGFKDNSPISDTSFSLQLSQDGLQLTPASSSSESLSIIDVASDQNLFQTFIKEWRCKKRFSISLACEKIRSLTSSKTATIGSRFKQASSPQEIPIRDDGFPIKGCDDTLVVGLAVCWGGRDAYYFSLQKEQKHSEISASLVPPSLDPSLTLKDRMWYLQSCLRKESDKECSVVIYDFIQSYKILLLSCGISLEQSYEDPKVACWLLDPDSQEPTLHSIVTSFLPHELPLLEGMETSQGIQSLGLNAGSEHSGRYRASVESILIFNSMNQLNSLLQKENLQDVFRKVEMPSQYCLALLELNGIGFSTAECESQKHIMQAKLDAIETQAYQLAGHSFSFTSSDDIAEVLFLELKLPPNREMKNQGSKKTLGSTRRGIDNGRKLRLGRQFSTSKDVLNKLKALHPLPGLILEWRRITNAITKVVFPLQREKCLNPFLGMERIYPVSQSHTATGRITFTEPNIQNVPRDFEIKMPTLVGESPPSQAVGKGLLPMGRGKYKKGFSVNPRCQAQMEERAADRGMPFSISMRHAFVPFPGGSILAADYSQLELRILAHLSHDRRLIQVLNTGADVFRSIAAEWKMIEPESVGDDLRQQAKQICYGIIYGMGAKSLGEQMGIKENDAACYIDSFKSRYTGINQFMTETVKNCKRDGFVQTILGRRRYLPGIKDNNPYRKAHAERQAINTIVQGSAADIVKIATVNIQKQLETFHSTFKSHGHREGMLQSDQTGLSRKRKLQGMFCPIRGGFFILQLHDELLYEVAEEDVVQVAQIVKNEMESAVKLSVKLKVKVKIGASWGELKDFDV
# Effect on: enzyme activity
# Action: inhibitor
# Tested at: 77 µM
# Reference: untreated
SMILES,remaining activity
NC(=S)c1ccc[n+]([C@@H]2O[C@H](COP(=O)([O-])OP(=O)(O)OC[C@H]3O[C@@H](n4cnc5c(N)ncnc54)[C@H](OP(=O)(O)O)[C@@H]3O)[C@@H](O)[C@H]2O)c1,99.6%
CCOC(=O)C(C)(C)Oc1ccc(Cl)cc1,99.4%
CC1CNc2c(cccc2S(=O)(=O)N[C@@H](CCCNC(=N)N)C(=O)N2CC[C@@H](C)C[C@@H]2C(=O)O)C1 (some centres unmarked),101%
CCC[C@H](NC(=O)[C@@H]1[C@H]2CCC[C@H]2CN1C(=O)[C@@H](NC(=O)[C@@H](NC(=O)c1cnccn1)C1CCCCC1)C(C)(C)C)C(=O)C(=O)NC1CC1,98.7%
COc1cc2ncnc(Nc3ccc(O)c(Br)c3)c2cc1OC,104%
CCCCc1oc2ccc(NS(C)(=O)=O)cc2c1C(=O)c1ccc(OCCCN(CCCC)CCCC)cc1,100%
COc1ccccc1N1CCN(CCN2C(=O)CC3(CCCC3)CC2=O)CC1,103%
Cn1cc(-c2[nH]c3cc(NC(=O)[C@H](N)C4CCCCC4)cc4c3c2C=NNC4=O)cn1,103%
CC(=O)[C@@]1(O)CC[C@H]2[C@@H]3CCC4=CC(=O)CCC4=C3[C@@H](c3ccc(N(C)C)cc3)C[C@@]21C,97.4%

# Block 3
# SMILES: Cc1ccc(NC(=O)c2ccnc(C(F)(F)F)c2)cc1-c1cc(OCCO)nc(N2CCOCC2)c1
# Effect on: binding
# Tested at: 1 µM
target,method,remaining binding [%]
"Mitogen-activated protein kinase 4 (MAPK4, Homo sapiens, UniProt P31152)",,96
"Serine/threonine-protein kinase 26 (STK26, Homo sapiens, UniProt Q9P289)",competition with immobilised ligand,85
"Bone morphogenetic protein receptor type-1A (BMPR1A, Homo sapiens, UniProt P36894)",competition with immobilised ligand,88
"Cyclin-dependent kinase 13 (CDK13, Homo sapiens, UniProt Q14004)",,77
"Phosphatidylinositol 4,5-bisphosphate 3-kinase catalytic subunit alpha isoform (PIK3CA, Homo sapiens, UniProt P42336, E545K)",,73
"Mitogen-activated protein kinase 10 (MAPK10, Homo sapiens, UniProt P53779)",,90
"Phosphatidylinositol 5-phosphate 4-kinase type-2 beta (PIP4K2B, Homo sapiens, UniProt P78356)",,100
"AP2-associated protein kinase 1 (AAK1, Homo sapiens, UniProt Q2M2I8)",competition with immobilised ligand,78
"Mitogen-activated protein kinase kinase kinase kinase 2 (MAP4K2, Homo sapiens, UniProt Q12851)",competition with immobilised ligand,100
"Epidermal growth factor receptor (EGFR, Homo sapiens, UniProt P00533)",competition with immobilised ligand,67
"Bone morphogenetic protein receptor type-1B (BMPR1B, Homo sapiens, UniProt O00238)",competition with immobilised ligand,100

# Block 4
# Target: Serine/threonine-protein kinase PAK 4 (PAK4, Homo sapiens, UniProt O96013)
# UniProt O96013, sequence (whole entry, looked up): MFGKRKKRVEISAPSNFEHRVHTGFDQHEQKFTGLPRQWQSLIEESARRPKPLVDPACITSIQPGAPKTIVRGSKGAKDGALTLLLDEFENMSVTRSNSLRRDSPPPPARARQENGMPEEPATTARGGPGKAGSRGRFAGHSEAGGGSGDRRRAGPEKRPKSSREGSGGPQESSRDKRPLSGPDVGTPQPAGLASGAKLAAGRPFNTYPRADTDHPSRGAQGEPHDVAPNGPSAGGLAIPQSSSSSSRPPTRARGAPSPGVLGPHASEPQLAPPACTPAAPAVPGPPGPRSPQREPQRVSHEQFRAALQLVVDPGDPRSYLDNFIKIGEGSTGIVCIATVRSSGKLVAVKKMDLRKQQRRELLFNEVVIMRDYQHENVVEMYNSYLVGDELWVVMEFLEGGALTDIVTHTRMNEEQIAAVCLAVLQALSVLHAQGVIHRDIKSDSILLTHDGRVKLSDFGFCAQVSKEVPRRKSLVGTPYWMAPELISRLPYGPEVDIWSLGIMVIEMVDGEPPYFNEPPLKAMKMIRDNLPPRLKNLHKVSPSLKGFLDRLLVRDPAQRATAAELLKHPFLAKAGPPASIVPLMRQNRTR
# Effect on: enzyme activity
# Action: inhibitor
# Tested at: 0.5 µM
# Reference: control
SMILES,remaining activity [%]
CCN(CC)CCCCN1c2ccccc2Oc2ccc(Cl)cc21,104
O=C(O)/C=C/c1cc(Br)c(Br)c(Br)c1Br,104
C[C@@H](N)[C@H]1CC[C@H](C(=O)Nc2ccncc2)CC1,90.3
CC(C)n1cnc2c(Nc3cccc(Cl)c3)nc(NCCO)nc21,105
NC(=O)c1ccc(-c2nc(-c3ccc4c(c3)OCCO4)c(-c3ccccn3)[nH]2)cc1,105
CC(C)(C)c1nc2c3cc[nH]c(=O)c3c3cc(F)ccc3c2[nH]1,105
O=Nc1c(-c2c(O)[nH]c3ccccc23)[nH]c2ccccc12,77.1
Nc1nc(Nc2ccc(S(N)(=O)=O)cc2)nn1C(=S)Nc1c(F)cccc1F,47.6
CCCCc1c(-c2ccc(O)cc2)[nH]c2nccnc12,108
N#C/C(=C(/N)SC1C=CC=CC1)c1cccc(C(O)c2ccncc2)c1 (centres unmarked),76.3
O=c1c(-c2ccc(F)cc2)c(-c2ccncc2)[nH]n1-c1ccc(Cl)cc1,82
O=C1c2ccccc2-c2nc3nnnn3nc21,91.4
NC(=O)c1cccc(-c2cc(Nc3ccc(OC(F)(F)F)cc3)ncn2)c1,94.6
O=C(c1ccccc1)c1ccc(N2CCOCC2)cc1O,104
FC(F)(F)c1ccc(/C=C/c2nc(COc3ccc(CCCCn4ccnn4)cc3)co2)cc1,107
N#CC(c1ccnc(NCCc2cccnc2)n1)c1nc2ccccc2s1 (centres unmarked),91.3
CNc1cc2c(Nc3cccc(Br)c3)ncnc2cn1,93
c1cc(-c2cnn3cc(-c4ccc(OCCN5CCCCC5)cc4)cnc23)ccn1,109
O=C1NC(=O)/C(=C/c2ccc3c(c2)OC(F)(F)O3)S1,90
Clc1ccc(Nc2nnc(Cc3ccncc3)c3ccccc23)cc1,95.8
CC(C)N(CCC(=O)c1ccc2ccccc2c1)Cc1ccccc1,90.4
